Measurements pooled from the literature.
Numbers after ± are the reported error.
Ahr: Aryl hydrocarbon receptor (Ahr, Mus musculus, UniProt P30561)
Sequence of UniProt P30561 (whole entry, looked up): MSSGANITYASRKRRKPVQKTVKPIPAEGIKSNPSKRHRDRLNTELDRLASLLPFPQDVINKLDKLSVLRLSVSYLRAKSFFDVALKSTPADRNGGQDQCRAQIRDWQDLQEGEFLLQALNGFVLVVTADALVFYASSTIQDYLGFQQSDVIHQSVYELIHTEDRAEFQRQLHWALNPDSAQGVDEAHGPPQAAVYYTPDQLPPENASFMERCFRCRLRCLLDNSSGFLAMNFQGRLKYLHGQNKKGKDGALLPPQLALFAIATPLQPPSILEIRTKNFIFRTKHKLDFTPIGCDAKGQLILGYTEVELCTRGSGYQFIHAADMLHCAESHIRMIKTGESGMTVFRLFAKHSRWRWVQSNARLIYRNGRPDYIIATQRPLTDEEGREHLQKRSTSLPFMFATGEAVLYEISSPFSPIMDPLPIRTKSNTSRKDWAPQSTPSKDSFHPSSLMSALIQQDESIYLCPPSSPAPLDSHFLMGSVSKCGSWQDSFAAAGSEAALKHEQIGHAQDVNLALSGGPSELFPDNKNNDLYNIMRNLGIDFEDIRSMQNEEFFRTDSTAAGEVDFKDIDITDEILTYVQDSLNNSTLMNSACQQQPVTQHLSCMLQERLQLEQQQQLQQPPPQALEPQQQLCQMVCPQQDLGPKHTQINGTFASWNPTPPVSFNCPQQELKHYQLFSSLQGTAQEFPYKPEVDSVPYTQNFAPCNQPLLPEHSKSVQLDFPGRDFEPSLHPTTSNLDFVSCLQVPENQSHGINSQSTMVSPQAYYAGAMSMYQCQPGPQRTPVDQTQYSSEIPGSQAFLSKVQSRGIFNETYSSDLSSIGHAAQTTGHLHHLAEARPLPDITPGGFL
CYP1B1: Cytochrome P450 1B1 (CYP1B1, Homo sapiens, UniProt Q16678)
KCNH2: Voltage-gated inwardly rectifying potassium channel KCNH2 (KCNH2, Homo sapiens, UniProt Q12809)
Sequence of UniProt Q12809 (whole entry, looked up): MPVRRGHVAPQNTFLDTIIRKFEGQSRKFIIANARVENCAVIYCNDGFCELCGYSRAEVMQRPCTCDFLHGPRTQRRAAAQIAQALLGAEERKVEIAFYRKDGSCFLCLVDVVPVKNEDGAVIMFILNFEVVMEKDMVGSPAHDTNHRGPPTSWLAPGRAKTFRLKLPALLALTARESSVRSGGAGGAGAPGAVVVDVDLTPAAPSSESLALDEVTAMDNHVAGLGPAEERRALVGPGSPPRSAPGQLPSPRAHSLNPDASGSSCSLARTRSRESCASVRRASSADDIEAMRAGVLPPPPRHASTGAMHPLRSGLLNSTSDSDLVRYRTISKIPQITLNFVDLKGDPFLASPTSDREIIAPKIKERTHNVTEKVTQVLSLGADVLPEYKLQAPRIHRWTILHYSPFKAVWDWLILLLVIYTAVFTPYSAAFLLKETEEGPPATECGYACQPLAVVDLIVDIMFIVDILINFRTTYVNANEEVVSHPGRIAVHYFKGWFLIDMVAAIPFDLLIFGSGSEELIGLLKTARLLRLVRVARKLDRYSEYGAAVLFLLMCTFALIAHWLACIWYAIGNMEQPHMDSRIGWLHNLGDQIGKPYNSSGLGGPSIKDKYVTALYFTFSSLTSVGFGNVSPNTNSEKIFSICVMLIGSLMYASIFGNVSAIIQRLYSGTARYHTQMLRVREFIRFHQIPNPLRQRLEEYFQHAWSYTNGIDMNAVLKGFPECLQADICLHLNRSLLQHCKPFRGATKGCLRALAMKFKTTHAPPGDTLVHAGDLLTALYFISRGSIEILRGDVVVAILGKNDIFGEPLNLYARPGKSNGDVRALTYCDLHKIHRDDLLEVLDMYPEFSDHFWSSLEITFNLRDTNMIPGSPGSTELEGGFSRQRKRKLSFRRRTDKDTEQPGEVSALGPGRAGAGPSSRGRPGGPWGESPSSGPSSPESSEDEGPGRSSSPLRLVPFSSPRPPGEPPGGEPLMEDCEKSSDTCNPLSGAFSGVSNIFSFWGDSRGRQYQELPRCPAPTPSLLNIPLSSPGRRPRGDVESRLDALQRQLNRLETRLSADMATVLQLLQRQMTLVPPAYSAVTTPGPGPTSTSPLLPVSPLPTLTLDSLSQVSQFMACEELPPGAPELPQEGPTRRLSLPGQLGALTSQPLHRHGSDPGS
CYP2E1: Cytochrome P450 2E1 (CYP2E1, Homo sapiens, UniProt P05181)
Sequence of UniProt P05181 (whole entry, looked up): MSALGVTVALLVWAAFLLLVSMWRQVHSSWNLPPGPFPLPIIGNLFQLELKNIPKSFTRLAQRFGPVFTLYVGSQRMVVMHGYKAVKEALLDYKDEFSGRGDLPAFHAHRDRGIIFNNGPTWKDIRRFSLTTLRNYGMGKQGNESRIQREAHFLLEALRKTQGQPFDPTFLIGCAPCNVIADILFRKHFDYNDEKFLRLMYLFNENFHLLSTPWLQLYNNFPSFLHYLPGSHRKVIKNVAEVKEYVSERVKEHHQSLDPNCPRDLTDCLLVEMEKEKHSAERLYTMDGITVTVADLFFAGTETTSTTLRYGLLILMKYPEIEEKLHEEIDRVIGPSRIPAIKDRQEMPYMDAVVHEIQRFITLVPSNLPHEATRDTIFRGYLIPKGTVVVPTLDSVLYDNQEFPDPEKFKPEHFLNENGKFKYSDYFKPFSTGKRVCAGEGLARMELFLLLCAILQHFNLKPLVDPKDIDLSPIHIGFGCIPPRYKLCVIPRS
Abcb1a N83Q/N87Q/N90Q: ATP-dependent translocase ABCB1 (Abcb1a, Mus musculus, UniProt P21447, N83Q/N87Q/N90Q)
Sequence of UniProt P21447 (whole entry, unmodified, looked up): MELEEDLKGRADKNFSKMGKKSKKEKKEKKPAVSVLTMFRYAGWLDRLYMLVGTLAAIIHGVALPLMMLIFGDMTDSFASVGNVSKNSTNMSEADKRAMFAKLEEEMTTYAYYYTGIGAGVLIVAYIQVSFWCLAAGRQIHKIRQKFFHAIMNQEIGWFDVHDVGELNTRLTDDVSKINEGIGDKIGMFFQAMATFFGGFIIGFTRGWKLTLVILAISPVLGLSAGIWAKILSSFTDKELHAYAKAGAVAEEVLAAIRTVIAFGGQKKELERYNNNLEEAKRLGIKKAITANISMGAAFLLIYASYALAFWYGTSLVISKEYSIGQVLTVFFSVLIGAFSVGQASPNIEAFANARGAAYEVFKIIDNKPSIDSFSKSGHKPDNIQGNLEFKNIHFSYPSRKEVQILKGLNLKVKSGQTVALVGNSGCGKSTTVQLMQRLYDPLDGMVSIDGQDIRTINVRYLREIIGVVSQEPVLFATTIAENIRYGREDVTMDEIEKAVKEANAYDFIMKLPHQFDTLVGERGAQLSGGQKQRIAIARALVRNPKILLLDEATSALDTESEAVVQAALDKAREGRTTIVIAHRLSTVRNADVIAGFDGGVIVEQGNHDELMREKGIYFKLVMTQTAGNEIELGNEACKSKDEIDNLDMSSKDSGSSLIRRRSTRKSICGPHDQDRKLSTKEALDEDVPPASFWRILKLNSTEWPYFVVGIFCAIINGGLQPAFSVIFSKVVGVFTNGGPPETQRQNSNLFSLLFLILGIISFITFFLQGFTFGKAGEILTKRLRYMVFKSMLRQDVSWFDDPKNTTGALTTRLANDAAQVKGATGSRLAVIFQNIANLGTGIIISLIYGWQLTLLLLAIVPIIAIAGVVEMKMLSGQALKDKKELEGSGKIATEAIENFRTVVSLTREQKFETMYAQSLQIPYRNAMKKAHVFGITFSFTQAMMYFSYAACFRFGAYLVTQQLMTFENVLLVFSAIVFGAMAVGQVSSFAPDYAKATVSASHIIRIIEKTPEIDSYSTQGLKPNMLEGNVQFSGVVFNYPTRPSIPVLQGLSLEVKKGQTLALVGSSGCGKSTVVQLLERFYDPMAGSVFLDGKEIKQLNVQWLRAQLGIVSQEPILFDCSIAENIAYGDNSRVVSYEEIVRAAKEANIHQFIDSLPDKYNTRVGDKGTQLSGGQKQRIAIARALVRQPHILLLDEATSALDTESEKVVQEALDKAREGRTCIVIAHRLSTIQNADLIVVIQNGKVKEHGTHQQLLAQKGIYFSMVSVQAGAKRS
CYP1A2: Cytochrome P450 1A2 (CYP1A2, Homo sapiens, UniProt P05177)
CYP1A1: Cytochrome P450 1A1 (CYP1A1, Homo sapiens, UniProt P04798)
Sequence of UniProt P04798 (whole entry, looked up): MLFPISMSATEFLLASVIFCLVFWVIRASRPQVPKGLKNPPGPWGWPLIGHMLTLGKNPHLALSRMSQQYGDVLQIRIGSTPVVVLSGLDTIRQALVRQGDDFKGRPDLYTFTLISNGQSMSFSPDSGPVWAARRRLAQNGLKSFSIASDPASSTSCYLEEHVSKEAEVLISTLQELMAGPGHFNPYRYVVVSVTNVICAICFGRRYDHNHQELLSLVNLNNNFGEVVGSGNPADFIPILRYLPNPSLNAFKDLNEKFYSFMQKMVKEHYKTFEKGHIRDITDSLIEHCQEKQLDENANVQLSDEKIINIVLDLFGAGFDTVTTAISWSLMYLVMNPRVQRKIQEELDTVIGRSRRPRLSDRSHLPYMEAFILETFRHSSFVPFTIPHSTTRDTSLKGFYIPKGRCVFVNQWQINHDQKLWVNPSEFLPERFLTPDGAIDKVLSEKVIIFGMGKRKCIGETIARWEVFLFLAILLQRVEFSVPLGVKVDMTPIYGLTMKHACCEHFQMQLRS
CYP2B6: Cytochrome P450 2B6 (CYP2B6, Homo sapiens, UniProt P20813)
Sequence of UniProt P20813 (whole entry, looked up): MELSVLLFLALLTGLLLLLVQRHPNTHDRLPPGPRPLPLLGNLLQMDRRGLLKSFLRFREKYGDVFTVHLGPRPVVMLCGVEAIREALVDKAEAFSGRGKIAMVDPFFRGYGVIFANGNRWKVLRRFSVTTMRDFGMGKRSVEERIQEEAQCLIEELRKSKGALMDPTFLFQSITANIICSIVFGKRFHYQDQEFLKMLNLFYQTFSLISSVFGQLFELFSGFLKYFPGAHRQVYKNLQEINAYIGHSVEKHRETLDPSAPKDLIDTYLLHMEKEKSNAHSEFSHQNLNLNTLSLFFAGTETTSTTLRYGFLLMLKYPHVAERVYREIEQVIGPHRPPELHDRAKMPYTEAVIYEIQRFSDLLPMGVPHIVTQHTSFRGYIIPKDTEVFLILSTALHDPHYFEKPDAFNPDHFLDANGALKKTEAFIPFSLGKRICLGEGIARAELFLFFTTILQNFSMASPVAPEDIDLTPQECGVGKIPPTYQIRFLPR

Substance | target or system | assay | test system | setting | endpoint | result
Clc1ccc(-c2cc(Cl)c(Cl)c(Cl)c2Cl)cc1Cl | Ahr | binding, competitor | – | in vitro expressed receptor, together with: [3H]TCDD | IC50 | 1 µM
O=C(Cc1ccccc1Nc1c(Cl)cccc1Cl)Oc1ccc(-c2cc(=S)ss2)cc1 | CYP1B1 | enzyme activity, inhibitor, fluorescence | – | – | IC50 | 2.4 µM
Clc1ccc(-c2cc(Cl)c(Cl)cc2Cl)cc1Cl | Ahr | binding, competitor | – | in vitro expressed receptor, together with: [3H]TCDD | IC50 | 6.31 µM
CN(C)c1ccc(C(=C2C=CC(=[N+](C)C)C=C2)c2ccccc2)cc1 | KCNH2 | thallium influx, inhibitor, confirmation | hERG-transduced cells | – | IC50 | 4.8 ± 0.8 µM
O=S(=O)(O)C(F)(F)C(F)(F)C(F)(F)C(F)(F)C(F)(F)C(F)(F)C(F)(F)C(F)(F)F | CYP2E1 | enzyme activity, inhibitor | – | Supersomes, together with: 7-MFC substrate | IC50 | > 100 µM
Brc1c(Br)c(Br)c(Oc2c(Br)c(Br)c(Br)c(Br)c2Br)c(Br)c1Br | Abcb1a N83Q/N87Q/N90Q | ATPase activity, inhibitor | – | together with: 100 µM verapamil | IC50 | 6.5 µM
C#CCOc1ccc(-c2cc(=O)c3ccccc3o2)cc1 | CYP1A2 | enzyme activity, inhibitor | – | – | IC50 | 1.27 µM
Clc1cc(-c2cc(Cl)c(Cl)c(Cl)c2)cc(Cl)c1Cl | Ahr | binding, competitor | – | in vitro expressed receptor, together with: [3H]TCDD | IC50 | 0.0631 µM
O=c1cc(-c2cccc(O)c2)oc2ccccc12 | CYP1A1 | enzyme activity, inhibitor, fluorescence | – | – | IC50 | 5 µM
Clc1ccc(-c2cc(Cl)c(Cl)cc2Cl)cc1Cl | Abcb1a N83Q/N87Q/N90Q | ATPase activity, inhibitor | – | together with: 100 µM verapamil | IC50 | 15.9 µM
O=c1cc(-c2ccc(O)cc2)oc2ccccc12 | CYP1A1 | enzyme activity, inhibitor, fluorescence | – | – | IC50 | 18.3 µM
CCCCCCCC[N+](CCCCCCCC)(CCCCCCCC)CCCCCCCC | KCNH2 | thallium influx, inhibitor, primary qHTS | hERG-transduced cells | two runs | IC50 | 0.38 ± 0.03 µM
Nonylphenol | CYP2B6 | enzyme activity, inhibitor, Vivid fluorescent | – | – | IC50 | 0.221 µM
C=C(C[C@@]12C[C@@H](C)C[C@@H](O1)[C@H]1O[C@]3(C[C@H]1O2)NC[C@H](C)C[C@@H]3C)[C@H]1O[C@@](O)([C@@H](O)[C@@H]2C[C@H]3O[C@@]4(CC[C@]5(CC(C)=C[C@@H](/C=C/CCC(=O)O)O5)O4)[C@H](C)C[C@H]3O2)[C@H](C)C[C@@H]1C | KCNH2 | ion current, inhibitor, patch clamp | HEK293 expressing hERG | room temperature, peak tail current | IC50 | 0.64 µM
C#CCOc1ccc2oc(-c3ccccc3)cc(=O)c2c1 | CYP1A1 | enzyme activity, inhibitor, fluorescence | – | – | IC50 | 0.48 µM
O=S(=O)(O)C(F)(F)C(F)(F)C(F)(F)C(F)(F)F | CYP2B6 | enzyme activity, inhibitor | Supersomes | together with: 7-ethoxy-4-trifluoromethylcoumarin substrate | IC50 | > 100 µM

Substance | target or system | assay | test system | setting | endpoint | result
Clc1cc(Cl)c(-c2cc(Cl)c(Cl)cc2Cl)c(Cl)c1 | Abcb1a N83Q/N87Q/N90Q | ATPase activity, inhibitor | – | together with: 100 µM verapamil | IC50 | 14.3 µM
C#CCOc1cccc2oc(-c3ccccc3)cc(=O)c12 | CYP1A2 | enzyme activity, inhibitor | – | – | IC50 | 0.38 µM
C[C@@H]1NC(C)(C)CO[C@@]1(O)c1cccc(Cl)c1 | Cytochrome P450 2D6 (CYP2D6, Homo sapiens, UniProt P10635) | enzyme activity, inhibitor | – | – | IC50 | 14 µM
c1ccc2cc3c(ccc4ccccc43)cc2c1 | CYP1B1 | – | – | – | IC50 | < 0.05 µM
Brc1ccc(Oc2cc(Br)ccc2Br)c(Br)c1 | Abcb1a N83Q/N87Q/N90Q | ATPase activity, inhibitor | – | together with: 100 µM verapamil | IC50 | 35.6 µM
Clc1ccc(-c2cc(Cl)c(Cl)c(Cl)c2)cc1 | Ahr | binding, competitor | – | in vitro expressed receptor, together with: [3H]TCDD | IC50 | 0.112 µM
Clc1cc(Cl)c(-c2cc(Cl)c(Cl)cc2Cl)cc1Cl | Abcb1a N83Q/N87Q/N90Q | ATPase activity, inhibitor | – | together with: 100 µM verapamil | IC50 | 21.8 µM
C#CCOc1ccccc1-c1cc(=O)c2ccccc2o1 | CYP1A1 | enzyme activity, inhibitor, fluorescence | – | – | IC50 | 0.56 µM
O=C(O)C(F)(OC(F)(F)C(F)(F)C(F)(F)F)C(F)(F)F (stereo not shown) | CYP2E1 | enzyme activity, inhibitor | – | Supersomes, together with: 7-MFC substrate | IC50 | > 100 µM
C#CCOc1cccc(-c2cc(=O)c3ccccc3o2)c1 | CYP1A1 | enzyme activity, inhibitor, fluorescence | – | – | IC50 | 0.02 µM
CN[C@@](C)(C[18F])C(=O)O | – | – | SCID mouse MDA-MB-468 xenograft, liver | 30 min, post injection | tissue uptake | 6.5 ± 0.8 %ID/g
COc1ccc2c(c1OC)C(=O)O[C@@H]2[C@H]1c2cc3c(cc2CCN1C)OCO3 | SLC22A1 (Homo sapiens, UniProt O15245) | inhibitor | – | – | IC50 | < 10 µM
N#Cc1ccc(C(O)c2ccc(C#N)cc2)cc1 | CYP2B6 | enzyme activity, inhibitor | human liver microsomes | together with: efavirenz 10 µM | IC50 | 33.1 µM
O=C(O)C(F)(F)C(F)(F)C(F)(F)C(F)(F)C(F)(F)F | CYP2E1 | enzyme activity, inhibitor | – | Supersomes, together with: 7-MFC substrate | IC50 | > 100 µM
Clc1ccccc1-c1c(Cl)c(Cl)c(Cl)c(Cl)c1Cl | Abcb1a N83Q/N87Q/N90Q | ATPase activity, inhibitor | – | together with: 100 µM verapamil | IC50 | 6.1 µM

Some of these lines once more:
Substance | target or system | assay | test system | setting | endpoint | result
CCCCCCCC[N+](CCCCCCCC)(CCCCCCCC)CCCCCCCC | KCNH2 | thallium influx, inhibitor, primary qHTS | hERG-transduced cells | two runs | IC50 | 0.38 ± 0.03 µM
N#Cc1ccc(C(O)c2ccc(C#N)cc2)cc1 | CYP2B6 | enzyme activity, inhibitor | human liver microsomes | together with: efavirenz 10 µM | IC50 | 33.1 µM
O=C(O)C(F)(OC(F)(F)C(F)(F)C(F)(F)F)C(F)(F)F (stereo not shown) | CYP2E1 | enzyme activity, inhibitor | – | Supersomes, together with: 7-MFC substrate | IC50 | > 100 µM
Clc1ccc(-c2cc(Cl)c(Cl)cc2Cl)cc1Cl | Ahr | binding, competitor | – | in vitro expressed receptor, together with: [3H]TCDD | IC50 | 6.31 µM
